Experimental data gathered from unrelated publications.
Compare with care: the assays were run in different laboratories. ± marks the error that the study gave. Converted amounts (≈) assume the structure as drawn.

SMILES | assay | system | conditions | scale | measurement | value
CCCCCCCC(=O)OC[C@H](NC(=O)[C@H](CO)NC(=O)CN)C(=O)N[C@@H](Cc1ccccc1)C(=O)N[C@@H](CC(C)C)C(=O)N[C@@H](CO)C(=O)N1CCC[C@H]1C(=O)N[C@@H](CCC(=O)O)C(=O)N[C@@H](Cc1cnc[nH]1)C(=O)N[C@@H](CCC(N)=O)C(=O)N[C@@H](CCCNC(=N)N)C(=O)N[C@H](C(=O)N[C@@H](CCC(N)=O)C(=O)N[C@@H](CCC(N)=O)C(=O)N[C@@H](CCCNC(=N)N)C(=O)N[C@@H](CCCCN)C(=O)N[C@@H](CCC(=O)O)C(=O)N[C@@H](CO)C(=O)N[C@@H](CCCCN)C(=O)N[C@@H](CCCCN)C(=O)N1CCC[C@H]1C(=O)N1CCC[C@H]1C(=O)N[C@@H](C)C(=O)N[C@@H](CCCCN)C(=O)N[C@@H](CC(C)C)C(=O)N[C@@H](CCC(N)=O)C(=O)N1CCC[C@H]1C(=O)N[C@@H](CCCNC(=N)N)C(=O)O)C(C)C | beat-to-beat plethysmography | human chronic HFrEF patients | intravenous infusion, 0.1 µg/kg/min, after 60 min infusion |  | blood pressure sBP | 99 ± 17.6 mm Hg
NS(=O)(=O)c1ccc(N2N=C(C(F)(F)F)C(O)C2c2ccc(F)cc2F)cc1 (stereo not drawn) | substrate | male Wistar rat liver microsomes | 20 µM, pH 7.4, mean of 0-90 and 0-60 min |  | metabolite formation rate | 87.7 pmol/min/mg
Cc1ccc(C(=O)N[C@@H](CO)CC(C)C)cc1CO | LC-MS | human liver microsomes | 10 µM of parent drug, 60 min, pH 7.4, together with: NADPH | baseline: parent drug at time zero | metabolite peak area | 0.1%
COc1cc(-c2nc3ccc(C(=O)NCCCN4CCN(C(=O)c5ccccc5)CC4)cc3n2C2CCC2)cc(OC)c1OC |  |  |  |  | dynamic solubility | 128 µM
Nc1ncnc(NCC2CCN(C(=O)C(O)CO)CC2)c1-c1ccc(Oc2ccccc2)cc1 (stereo not drawn) |  | healthy male human, plasma | oral, 75 mg evobrutinib | baseline: metabolite over evobrutinib | AUC(0-24) ratio | 202%
CCCC[C@H](NC(=O)CNC(=O)CNC(=O)CN1CCN(CC(=O)O)CCN(CC(=O)O)CCN(CC(=O)O)CC1)C(=O)N[C@H]1CC(=O)NCCCC[C@@H](C(N)=O)NC(=O)[C@H](Cc2c[nH]c3ccccc23)NC(=O)[C@H](CCCNC(=N)N)NC(=O)[C@@H](Cc2ccccc2)NC(=O)[C@H](Cc2c[nH]cn2)NC1=O [copper-64 labelled] |  | female C57 mouse, B16/F1 melanoma | intravenous, 0.037 MBq, 24 h | baseline: tumour over muscle | uptake ratio | 17.5
CN1CCC[C@]1(C)/C=C/S(=O)(=O)NC(=O)Nc1c2c(cc3c1CCC3)CCC2 |  | human, plasma | oral, 50 mg twice daily, day 1, multiple ascending dose |  | AUC(0-24) | 65500 ng·h/mL
O=C([O-])CN(CCN(CC(=O)[O-])Cc1cc(CCC(=O)NCCCCCC(=O)NCCCC[C@H](NC(=O)N[C@@H](CCC(=O)O)C(=O)O)C(=O)O)ccc1O)Cc1cc(CCC(=O)O)ccc1[O-].[68Ga+3] | PET/CT | prostate cancer patients, gluteal muscle | 60 min post-injection |  | SUVmean | 0.44 ± 0.1
[11CH3]c1ccc2nc(C3CCC3)n(-c3ccc4[nH]ncc4c3)c2n1 |  | human male, adrenals |  |  | absorbed radiation dose | 3.4 µSv/MBq
N=C(N)NCCC[C@@H]1NC(=O)[C@H](Cc2c[nH]c3ccccc23)NC(=O)[C@@H](CC2CCCCC2)NC(=O)[C@@H]2CCCN2C(=O)[C@@H](NC(=O)CCc2ccccc2)CCCNC1=O |  | C57BL/6J mouse, spinal cord | intravenous, 1 mg/kg, single dose, two-compartment model |  | alpha distribution rate constant | 27.4 h⁻¹
OC1(C(F)(F)F)CCN(c2nc(Nc3ccnc(C(F)(F)F)c3)nc(-c3cccc(C(F)(F)F)n3)n2)C1 (stereo not drawn) |  | Sprague-Dawley rat, both sexes, faeces | oral, 10.1 mg/kg, 168 h, together with: [14C]-labelled compound | baseline: dose | faecal excretion of radioactivity | 95.7 ± 2.4%
C=CC(=O)Nc1cc(Nc2nccc(-c3c[nH]c4ccccc34)n2)c(OC)cc1N(C)CCN(C)C | UHPLC-MS/MS | human, finger-prick dried blood spot | oral, 80 mg daily |  | steady-state trough concentration | 19 ng/mL
CCC(=O)N[C@@H](C)C(=O)OCC(=O)N[C@@H](C)C(=O)O |  | water | pH 3, 25 °C |  | depolymerization half-life | 105 days
Cn1c(=O)oc2ccc(-c3ccc(CC(C#N)NC(=O)C4CNCCCO4)c(F)c3)cc21 (stereo not drawn) |  | human | oral, 20 mg once daily, treatment-related AE, multiple ascending dose |  | acne incidence | 11.1%
Cc1nc(C)c(C=[N+]([O-])C(C)(C)C)nc1C |  | healthy human, both sexes, serum | oral, 1200 mg twice daily, 7 days |  | Cavg | 6780 ng/mL
CCCC[C@H](NC(=O)CNC(=O)CNC(=O)CN1CCN(CC(=O)O)CCN(CC(=O)O)CC1)C(=O)N[C@H]1CC(=O)NCCCC[C@@H](C(N)=O)NC(=O)[C@H](Cc2c[nH]c3ccccc23)NC(=O)[C@H](CCCNC(=N)N)NC(=O)[C@@H](Cc2ccccc2)NC(=O)[C@H](Cc2c[nH]cn2)NC1=O [gallium-67 labelled] |  | C57 mice, B16/F1 melanoma | 0.5 h |  | tumour to skin uptake ratio | 5.15
O=[11C](OC(C(F)(F)F)C(F)(F)F)N1CCC(CNS(=O)(=O)c2ccc(Cl)cc2)CC1 | PET | rhesus monkey, male, occipital cortex | iv, 3.71 mCi |  | uptake | 0.93 SUV

SMILES | assay | system | conditions | scale | measurement | value
Oc1ccc(C(F)(F)F)cc1-c1nc2c(Cl)cc(Cl)cc2[nH]1 |  | defibrinated sheep blood | 400 µM | baseline: 1% Triton X-100 | hemolysis | < 50%
Cc1ccc(OCC(=O)N(Cc2cccs2)c2ccn[nH]2)cc1 |  | Sprague-Dawley rat, male, plasma | oral gavage, 30 mg/kg |  | dose-normalised AUC(0-last) | 0.208 ng·h/mL/mg/kg
CCCC[C@@H]1NC(=O)[C@@H](NC(=O)[C@H](CCC(=O)O)NC(=O)CNC(=O)CN2CCN(CC(=O)O)CCN(CC(=O)O)CCN(CC(=O)O)CC2)CCCCNC(=O)C[C@@H](C(N)=O)NC(=O)[C@H](C(C)C)NC(=O)[C@@H]2CCCN2C(=O)[C@H](CCCNC(=N)N)NC(=O)CNC(=O)[C@H](Cc2c[nH]c3ccccc23)NC(=O)[C@H](CCCNC(=N)N)NC(=O)[C@@H](Cc2ccccc2)NC(=O)[C@H](Cc2c[nH]cn2)NC(=O)[C@H](CCC(=O)O)NC1=O [gallium-67 labelled] |  | C57 mice with B16/F1 melanoma | intravenous, 0.037 MBq/mouse, 2 h | baseline: tumour over muscle | tumour to muscle ratio | 323
CC(C)(Sc1ccncc1-c1ccc(C#N)c2ccccc12)C(=O)OC1OC(C(=O)O)C(O)C(O)C1O (stereo not drawn) |  | human, urine | oral, 15 mg, 72 h, moderate renal impairment |  | renal clearance | 80.4 mL/min
Cn1cc(C(N)=O)c(NC2C3CC4CC2CC(O)(C4)C3)c2ccnc1-2 (stereo not drawn) |  | Japanese adults, normal hepatic function, plasma | oral, 150 mg single dose |  | AUC(0-t) | 402 ng·h/mL
Cc1cc(O)c2c(c1)C(=O)c1cc(O)cc(O)c1C2=O.Cc1cc(O)c2c(c1)C(=O)c1cc(O)cc(O)c1C2=O.Cc1nc(C)c(C)nc1C | powder dissolution | 900 mL medium | equivalent to 60 mg emodin, pH 6.8, 37 °C, 100 rpm |  | cumulative dissolution | ~333 µg
O=C(N[c-]1cccc1)OCc1ccc(C(=O)O)cc1.[Fe+2].c1cc[cH-]c1 | cyclic and differential pulse voltammetry | acetonitrile | 23 °C | baseline: ferrocene/ferrocenium | E1/2 | -70 mV
Cc1ccc(-c2ccc(-c3cc4sccc4o3)cn2)nc1 | TCSPC | DMF |  |  | radiative decay rate constant | 0.5 ns⁻¹
CCCCN1C(=O)c2cccc3c(NCCCCCCN4CCOCC4)ccc(c23)C1=O |  | aqueous medium | pH 6 |  | fluorescence brightness | 3900 M⁻¹ cm⁻¹
CN(O)C(=O)CCC(=O)NCCCN(CCCCN(CCCNC(=O)CCC(=O)N(C)O)C(=O)CCC(=O)N(C)O)C(=O)CCC(=O)N(C)O.[89Zr] |  | mouse, pancreas | 4 h |  | tracer uptake | 0.02 %ID/g
C#CCO[C@H]1C[C@H]2[C@@H](C)C[C@H]3OC(=O)C(=C)[C@H]3C[C@]2(C)[C@H]1O | propidium iodide flow cytometry | primary splenocytes, BALB/c mouse | 48 h, 10% fetal calf serum |  | CC50 | 55 ± 5.4 µg/mL (≈ 181 µM)
Oc1c(Br)cc(Br)c2nc3cc(C(F)(F)F)ccc3nc12 |  | human red blood cells | 200 µM, 1 h, pH 7.2, 37 °C |  | hemolysis | 7.2%
COC(=O)/C=C/C(=O)c1ccc(OC)cc1 | LC-MS/MS | processed rat plasma, autosampler | 400 ng/mL, 12 h, 4 °C, post-preparative |  | recovery | 98.4 ± 7.23%
CCn1c(=O)n(CCO)c(=O)c2c1nc(/C=C/c1ccc(OC)c(OC)c1)n2C |  | healthy humans, plasma | oral, 40 mg |  | metabolite to parent Cmax ratio | 0.0674
Cc1ccc(/N=N/c2c(O)ccc3ccccc23)c(C)c1 |  | extracted rat blood QC samples | 0.5 µg/L, 12 h, room temperature, short-term stability |  | measured concentration | 0.503 µg/L
CC(C)c1cnc(-c2cc(Cl)ccc2F)cc1Nc1ccncc1C(=O)NC(CO)CO |  | patients, phase I monotherapy | oral, dose not given, grade 5 |  | patients with decreased appetite | 0%
